Measurements pooled from the literature.
Parts stem from different laboratories: compare values within a part only.
Chain of UniProt Q8IU80 (whole entry, looked up): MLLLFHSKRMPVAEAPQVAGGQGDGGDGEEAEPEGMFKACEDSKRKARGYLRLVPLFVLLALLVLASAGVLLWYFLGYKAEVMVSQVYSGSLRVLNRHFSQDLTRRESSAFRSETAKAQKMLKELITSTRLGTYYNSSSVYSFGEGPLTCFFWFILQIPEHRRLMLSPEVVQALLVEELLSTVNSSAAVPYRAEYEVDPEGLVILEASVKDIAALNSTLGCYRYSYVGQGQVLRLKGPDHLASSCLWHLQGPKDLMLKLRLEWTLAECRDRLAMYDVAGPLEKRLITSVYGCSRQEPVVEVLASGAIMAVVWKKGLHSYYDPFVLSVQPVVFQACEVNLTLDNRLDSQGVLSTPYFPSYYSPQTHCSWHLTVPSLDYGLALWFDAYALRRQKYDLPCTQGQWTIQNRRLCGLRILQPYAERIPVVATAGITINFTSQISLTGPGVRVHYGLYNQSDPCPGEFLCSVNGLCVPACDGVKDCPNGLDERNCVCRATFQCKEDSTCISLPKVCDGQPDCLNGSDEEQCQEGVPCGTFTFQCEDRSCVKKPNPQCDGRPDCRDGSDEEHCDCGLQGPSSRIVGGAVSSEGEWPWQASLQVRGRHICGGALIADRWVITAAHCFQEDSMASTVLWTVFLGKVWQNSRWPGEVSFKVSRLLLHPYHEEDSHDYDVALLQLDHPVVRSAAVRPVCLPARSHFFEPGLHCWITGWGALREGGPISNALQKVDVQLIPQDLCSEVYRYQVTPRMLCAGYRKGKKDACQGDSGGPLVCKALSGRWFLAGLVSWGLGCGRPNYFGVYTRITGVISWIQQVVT
Chain of UniProt P62344 (whole entry, looked up): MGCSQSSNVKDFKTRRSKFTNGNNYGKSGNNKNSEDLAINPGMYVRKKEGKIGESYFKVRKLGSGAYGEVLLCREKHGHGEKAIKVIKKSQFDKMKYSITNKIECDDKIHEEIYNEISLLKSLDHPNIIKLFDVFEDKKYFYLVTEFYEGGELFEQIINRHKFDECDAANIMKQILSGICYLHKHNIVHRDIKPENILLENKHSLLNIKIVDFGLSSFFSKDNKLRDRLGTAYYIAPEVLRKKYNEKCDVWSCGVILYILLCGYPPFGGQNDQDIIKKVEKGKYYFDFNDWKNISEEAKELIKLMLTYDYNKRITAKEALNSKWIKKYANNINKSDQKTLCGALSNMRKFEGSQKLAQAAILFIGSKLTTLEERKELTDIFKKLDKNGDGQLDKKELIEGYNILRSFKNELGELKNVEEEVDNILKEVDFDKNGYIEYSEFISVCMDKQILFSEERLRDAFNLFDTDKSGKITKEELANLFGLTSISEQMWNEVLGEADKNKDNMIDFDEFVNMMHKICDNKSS

Sample 1
Target: UBE2W UBC core domain (UniProt Q96B02)
Method: yeast two-hybrid
Medium: yeast
Setting: mostly zero background
Reference: not given
Direction: higher = stronger interaction
B1: TRIM43 RING domain (UniProt Q96BQ3); chain FSHAFQKELTCVICLNYLVDPVTICCGHSFCRPCLCLSWEEAQSPANCPACREPSPKMDFKT
B2: RNF208 RING domain (UniProt Q9H0X6); chain SSAAAGEPLECPTCGHSYNVTQRRPRVLSCLHSVCEQCLQILYESCPKYKFISCPTCRRETVLFTDYG
B3: TRIM5 RING domain (UniProt Q9C035); chain LREVKLSPEGQKVDHCARHGEKLLLFCQEDGKVICWLCERSQEHRGHHTFLTEEVAREYQVKL
B4: TRAF5 RING domain (UniProt O00463); chain FVERLEERYKCAFCHSVLHNPHQTGCGHRFCQHCILSLRELNTVPICPVDKEVIKSQEVFK
Construct (chain): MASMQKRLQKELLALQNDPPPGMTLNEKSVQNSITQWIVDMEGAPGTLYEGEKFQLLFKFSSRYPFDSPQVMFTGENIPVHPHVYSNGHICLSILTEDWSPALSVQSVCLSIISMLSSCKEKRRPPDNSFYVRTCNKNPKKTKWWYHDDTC
| Molecule | lacZ reporter activity |
| --- | --- |
| FQGDVDEDLICPICSGVLEEPVQAPHCEHAFCNACITQWFSQQQTCPVDRSVVTVAHLRP (RNF41 RING domain (UniProt Q9H4P4)) | 0 |
| B1 (TRIM43 RING domain) | 0 |
| PAELEVQASECVVCLEREAQMIFLNCGHVCCCQQCCQPLRTCPLCRQDIAQRLRIY (LRSAM1 RING domain (UniProt Q6UWE0)) | 0 |
| QVDKAVFHMQSVKCLKCQEQKRAVLPCQHAALCELCAEGSECPICQPGRAHTLQS (UNK RING domain (UniProt Q9C0B0)) | 0 |
| B2 (RNF208 RING domain) | 0 |
| B3 (TRIM5 RING domain) | 0 |
| B4 (TRAF5 RING domain) | 0 |
| ASLPTSEEDLCPICYAHPISAVFQPCGHKSCKACINQHLMNNKDCFFCKTTIVSVEDWE (RNF123 RING domain (UniProt Q5XPI4)) | 0 |

Sample 2
Target: HLA class I histocompatibility antigen, A alpha chain, allele A*80:01 (Homo sapiens, UniProt P04439)
Effect on: peptide-MHC binding
Form: peptide
Tested at: concentration not given
| Molecule | binding |
| --- | --- |
| WFLYVSQQI | inactive |
| FQAGWEDPT | inactive |
| VFTSRIQVI | inactive |
| YALTEYHAM | inactive |
| MAMTGLPQA | inactive |
| MPWLDNIVE | inactive |
| RGRKPIFRK | inactive |
| DHIPIINTL | inactive |

Single results of other studies
LTK: Leukocyte tyrosine kinase receptor (LTK, Homo sapiens, UniProt P29376)
Chain of UniProt P29376 (whole entry, looked up): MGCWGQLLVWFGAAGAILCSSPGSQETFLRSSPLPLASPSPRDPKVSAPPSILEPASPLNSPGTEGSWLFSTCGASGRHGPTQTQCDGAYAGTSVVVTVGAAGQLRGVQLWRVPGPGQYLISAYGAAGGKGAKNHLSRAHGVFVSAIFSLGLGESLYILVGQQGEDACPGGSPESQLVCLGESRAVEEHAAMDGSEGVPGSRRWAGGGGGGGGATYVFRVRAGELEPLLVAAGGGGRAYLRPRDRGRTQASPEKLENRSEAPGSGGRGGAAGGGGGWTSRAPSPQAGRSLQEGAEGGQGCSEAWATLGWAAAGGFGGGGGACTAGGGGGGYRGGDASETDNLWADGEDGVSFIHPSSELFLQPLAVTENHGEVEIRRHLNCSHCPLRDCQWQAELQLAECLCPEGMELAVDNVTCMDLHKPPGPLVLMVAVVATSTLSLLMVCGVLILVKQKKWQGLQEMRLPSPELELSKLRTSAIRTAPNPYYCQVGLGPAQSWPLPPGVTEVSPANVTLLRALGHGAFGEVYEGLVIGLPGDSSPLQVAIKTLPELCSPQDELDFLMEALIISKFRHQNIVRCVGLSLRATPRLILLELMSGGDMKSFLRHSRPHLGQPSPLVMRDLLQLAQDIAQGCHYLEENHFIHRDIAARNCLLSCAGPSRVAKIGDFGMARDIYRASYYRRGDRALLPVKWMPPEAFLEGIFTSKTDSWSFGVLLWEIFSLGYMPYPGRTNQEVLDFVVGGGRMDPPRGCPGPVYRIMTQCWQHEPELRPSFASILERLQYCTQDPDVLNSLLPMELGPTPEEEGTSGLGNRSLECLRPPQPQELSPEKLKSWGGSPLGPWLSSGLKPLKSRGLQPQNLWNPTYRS
| Compound | target or system | test | system | setting | measurement | value |
| --- | --- | --- | --- | --- | --- | --- |
| Cc1cccc(C)c1-n1nnnc1C1(N)CCC(C)CC1 (stereo not drawn) | – | – | mouse, microsomes or S9 | 2 µM, 0.5 h | remaining compound | 0.44% |
| O=C(O)/C=C/c1cc(Br)c(Br)c(Br)c1Br | LTK | enzyme activity, inhibitor, radiometric | – | 0.5 µM | remaining activity | 94.5% |
| N=C(N)c1ccc2cc(OC(=O)c3ccc(N=C(N)N)cc3)ccc2c1 | Transmembrane protease serine 6 (Homo sapiens, UniProt Q8IU80) | – | – | – | IC50 | < 508 pM |
| CO[C@@H](C)c1c(Nc2ccc([C@@H](N(C)C(=O)C3CCS(=O)(=O)CC3)C(F)(F)F)cc2)cnc2cc(Cl)nn12 | CDPK1 (Plasmodium falciparum, UniProt P62344) | cell-free assay, competition with immobilised ligand | – | 1 µM | remaining binding | 78% |
| C[C@@H](N)[C@H]1CC[C@H](C(=O)Nc2ccncc2)CC1 | LTK | enzyme activity, inhibitor, radiometric | – | 0.5 µM | remaining activity | 90.7% |

Excerpt of the above (sample 2):
| Molecule | binding |
| --- | --- |
| WFLYVSQQI | inactive |
